Results pooled from the literature.
Every numbered part comes from another study and shows a few of its results, in no order. Changes are numbered by the printed parent chain.

Block 1 — method: RNA Bind-n-Seq; form: RNA; medium: in vitro; tested at: not given; notes: RNA with constant flanks, ends assumed; reference: input RNA pool; direction: higher = stronger binding
Target: RING finger protein unkempt homolog, zinc fingers 1-6, GST-SBP tag (UNK, Homo sapiens, UniProt Q9C0B0, residues 30-357)
Chain of UniProt Q9C0B0 (30-357, looked up): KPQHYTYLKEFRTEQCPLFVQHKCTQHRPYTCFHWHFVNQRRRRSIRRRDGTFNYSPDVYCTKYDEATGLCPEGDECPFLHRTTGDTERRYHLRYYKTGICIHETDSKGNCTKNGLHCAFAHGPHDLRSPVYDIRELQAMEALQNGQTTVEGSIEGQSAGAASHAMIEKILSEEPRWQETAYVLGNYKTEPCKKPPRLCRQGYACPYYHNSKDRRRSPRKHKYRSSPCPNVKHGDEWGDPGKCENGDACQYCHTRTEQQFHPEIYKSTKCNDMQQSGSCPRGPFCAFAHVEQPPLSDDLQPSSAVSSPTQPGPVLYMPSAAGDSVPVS
All sequences stand within: GGGAGUUCUACAGUCCGACGAUC … CAACAGAGGAUUGAGCAUCA
The bound/input enrichment of `AAGAUUUGGACCUUGGAGCUGAACCAGGGAGCUAGCAAAAGUAAAGCAGACUUAUAAAAUUACCGCUAUGUGCAGCUGCACAACACAGUCCUUCCACUAGCAGCUGUGUUAAAGUAUUUA` is reported as 1.02 ratio.
With `GUUGACUCCCUCAAUGGAUUGGUUUACAUAGGUCAAAGAGGGGAUAACAUCCCAAAGAUAUCCGUGUUCACAGAGGAUGGAUAUUUCCUACGAGCCUGGAAUUAUACAGUUGACACACCU` the bound/input enrichment was 0.164 ratio.
For `AAGGCAACACUGGUGGCUUCCUGCCCUUCGCCGCUCCUUGCCUCCCGUUUUGCUGGGUAUUUCCGAUUGGGAGUGACCCCUGUGAUUCCAGCCAUGGGUGCCUCAGCAUCUUCUCCUGCU`, the bound/input enrichment was 0.121 ratio.
With `AUAGAUGAAAUUGAUGUAGAUCAGGAAGGAAUUGCAGAAAUGAUGCUGGAUGAAAAUGCUACCGCUCAAGUUCCACGCCCUGGAACGUCUUUGAAACUCCCUGGAACUAAUCAGACAGGA` the bound/input enrichment was 0.417 ratio.
`GGGUUGCUUCCCAUCCCAACCUCCAGUCCUCUGACGGCAGUGAGUAGUCUUGGUGUUUCACUCCGCAGUUUGGGAGCUAUCCCAGCAGCAGCGCUGGACCCAAAUAUUACAACACUUGGA` has a bound/input enrichment of 0.0626 ratio.
The bound/input enrichment of `UUUUCCUUCUUCAUGUGACCUAUGAAAAUAAAUGAAUAAUAACUCAAAAAAAGUACUUUGCCGUUUUUGUCUUUCCUUAAGUAAAACUAAUCUUUUCUUUUAAAAAAUUCUUUUAAGGCC` is reported as 0.498 ratio.
With `CAUGGGUUUUAAGUGCUUGUGGCUCUCUGAAGCUUAAGUGAGGAUUUCCUUGCAAUGAGCCGAAUUUCCCUUCUGUCCCUUGUCACAAGUUUAAAAACCUCACAGCUUGUAUAAUGUAAU` the bound/input enrichment was 0.219 ratio.
`UAAUUUUGGCAGGAGUUAGAAUAAAUCCUUGGAGCCUGGGCCCCUCUGUCCUUGGCCCUCCACCGCCUUCUCGCUAGAGGGGGAAAGAAGGUUCUCGGGCCGGCCCCACUACCAAGCAUA` gave a bound/input enrichment of 0.216 ratio.
The bound/input enrichment of `AAUAGUAGUACAGCUAUUGGAAUCAGAUGCAAAGAUGGUGUUGUCUUUGGGGUAGAAAAAUCCGUCCUUUCUAAACUUUAUGAAGAAGGUUCCAACAAAAGACUUUUUAAUGUUGAUCGG` is reported as 0.198 ratio.
For `UCUCCACAAUCAAUAGGUUUCCAAGCAACAAUCAGUGCUCCACACAUGCAUGCAUAUGCGCCCGAACUUCUAUUUGAUCAGUUGCAUGAAGGAGCUAAAGCUCUUGAUGUAGGAUCUGGA`, the bound/input enrichment was 0.586 ratio.
`UAUAUUUUGGAUUUUGUUUGUGUUGAAUUUUUUAAUCAUUGUGCACAGAAGCAUCAUUGGCCGCUUUUAUAUGCAAAAUGGUCAUUUCAGAUGUAUGGUGUUUUUACACUACAAAGAAGU` has a bound/input enrichment of 0.15 ratio.

Block 2 — target: CEP164, C-terminal peptide (human); method: DHFR complementation, deep sequencing; medium: yeast; reference: wild type; direction: higher = weaker binding
Notes: single substitutions, model-inferred values
Starting sequence: PDZK1, PDZ domain 2 (human); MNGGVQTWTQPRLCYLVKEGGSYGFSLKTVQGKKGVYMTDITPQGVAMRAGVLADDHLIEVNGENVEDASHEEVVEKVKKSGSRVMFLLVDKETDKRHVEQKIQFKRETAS; partner HNRVKVYRF
`K106C` — result for “binding free energy change”: -0.0759 kcal/mol.
For `Y37D`, “binding free energy change” read 1.56 kcal/mol.
For `V74Q`, “binding free energy change” read 0.0345 kcal/mol.
For `T94F`, “binding free energy change” read -0.0618 kcal/mol.
`K18L` — result for “binding free energy change”: 0.768 kcal/mol.
`K92A`: “binding free energy change” -0.224 kcal/mol.
For `S70P`, “binding free energy change” read -0.308 kcal/mol.
`G51A` — result for “binding free energy change”: 0.749 kcal/mol.
`R107Q`: “binding free energy change” -0.115 kcal/mol.
For `R107T`, “binding free energy change” read -0.194 kcal/mol.
Under “binding free energy change”, `V74R` is recorded as 0.383 kcal/mol.
`H71S` — result for “binding free energy change”: 0.0854 kcal/mol.
`G24Y`: “binding free energy change” 0.45 kcal/mol.
Under “binding free energy change”, `Q44H` is recorded as 0.101 kcal/mol.
Under “binding free energy change”, `S83C` is recorded as -0.413 kcal/mol.
Under “binding free energy change”, `L13W` is recorded as 0.177 kcal/mol.
For `V85E`, “binding free energy change” read 1.64 kcal/mol.
`E100N` — result for “binding free energy change”: -0.112 kcal/mol.
For `K106A`, “binding free energy change” read -0.32 kcal/mol.

Block 3 — target: DBP, bZIP domain (human); method: DHFR protein complementation; medium: yeast; reference: wild-type JUN-FOS pair; direction: higher = stronger binding
Notes: single substitutions, most at no-binding floor
Starting sequence: JUN, bZIP domain (human); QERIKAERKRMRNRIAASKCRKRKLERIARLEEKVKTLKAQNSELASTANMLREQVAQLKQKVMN; partner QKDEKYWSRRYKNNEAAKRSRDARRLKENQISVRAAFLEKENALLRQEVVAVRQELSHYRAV
`K39N` has a binding fitness of -1.43 natural log.
With `K36D` the binding fitness was -1.46 natural log.
`Q41K` has a binding fitness of -1.5 natural log.
`S47W` has a binding fitness of -1.57 natural log.
The binding fitness of `E33F` is reported as -1.3 natural log.
`S43H` gave a binding fitness of -1.62 natural log.
The binding fitness of `L31S` is reported as -1.5 natural log.
`K36A` gave a binding fitness of -1.38 natural log.
The binding fitness of `M51K` is reported as -1.48 natural log.
`M51H` has a binding fitness of -1.56 natural log.
For `T37G`, the binding fitness was -1.45 natural log.
The binding fitness of `Q55P` is reported as -1.54 natural log.

Other studies, line by line
`PhoQ, residues 284 288 289 292 302 303 NLALSC` has a fold induction of 1.08 (PhoP, residues 12 14 15 18 19 LHHSG (Escherichia coli, UniProt P23836); Sort-seq, item: YFP reporter; E. coli; PhoQ-PhoP variant library, with: 10 µM Mg2+; reference: high Mg2+ state, higher = stronger signaling).

For quick reference, copied from above (block 1):
The bound/input enrichment of `UUUUCCUUCUUCAUGUGACCUAUGAAAAUAAAUGAAUAAUAACUCAAAAAAAGUACUUUGCCGUUUUUGUCUUUCCUUAAGUAAAACUAAUCUUUUCUUUUAAAAAAUUCUUUUAAGGCC` is reported as 0.498 ratio.
The bound/input enrichment of `AAUAGUAGUACAGCUAUUGGAAUCAGAUGCAAAGAUGGUGUUGUCUUUGGGGUAGAAAAAUCCGUCCUUUCUAAACUUUAUGAAGAAGGUUCCAACAAAAGACUUUUUAAUGUUGAUCGG` is reported as 0.198 ratio.
For `UCUCCACAAUCAAUAGGUUUCCAAGCAACAAUCAGUGCUCCACACAUGCAUGCAUAUGCGCCCGAACUUCUAUUUGAUCAGUUGCAUGAAGGAGCUAAAGCUCUUGAUGUAGGAUCUGGA`, the bound/input enrichment was 0.586 ratio.
For `AAGGCAACACUGGUGGCUUCCUGCCCUUCGCCGCUCCUUGCCUCCCGUUUUGCUGGGUAUUUCCGAUUGGGAGUGACCCCUGUGAUUCCAGCCAUGGGUGCCUCAGCAUCUUCUCCUGCU`, the bound/input enrichment was 0.121 ratio.
`UAUAUUUUGGAUUUUGUUUGUGUUGAAUUUUUUAAUCAUUGUGCACAGAAGCAUCAUUGGCCGCUUUUAUAUGCAAAAUGGUCAUUUCAGAUGUAUGGUGUUUUUACACUACAAAGAAGU` has a bound/input enrichment of 0.15 ratio.
With `AUAGAUGAAAUUGAUGUAGAUCAGGAAGGAAUUGCAGAAAUGAUGCUGGAUGAAAAUGCUACCGCUCAAGUUCCACGCCCUGGAACGUCUUUGAAACUCCCUGGAACUAAUCAGACAGGA` the bound/input enrichment was 0.417 ratio.
